Experimental data collected from several papers.
Parts stem from different laboratories: compare values within a part only.

Series 1 — method: RNAcompete; form: RNA; sample: in vitro; concentration: 20 nM; notes: 7-mer, probes averaged, single round; relative to: mean of 7-mers; direction: higher = stronger binding; quantity: 7-mer Z-score
Target: PABPC1L2, full length, GST fusion (mouse, UniProt A0ABA7IW68)
Residues (chain): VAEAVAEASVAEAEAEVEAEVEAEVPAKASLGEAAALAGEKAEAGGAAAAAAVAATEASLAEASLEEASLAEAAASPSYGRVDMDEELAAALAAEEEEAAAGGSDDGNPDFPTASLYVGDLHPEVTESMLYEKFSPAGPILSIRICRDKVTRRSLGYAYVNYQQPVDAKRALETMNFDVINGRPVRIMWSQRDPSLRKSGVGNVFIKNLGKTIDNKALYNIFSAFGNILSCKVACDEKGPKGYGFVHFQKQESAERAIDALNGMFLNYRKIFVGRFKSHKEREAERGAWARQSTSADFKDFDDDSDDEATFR
AACCCCG: -0.271
CCCUUAU: -0.418
CCAGGGU: -0.184
CGCUGGA: -0.0989
GCGCAAC: -0.0319
CAGGUGA: 0.000733
AUGGCCA: -0.144
AACCUCC: -0.217
CGUGCGA: -0.171
GGUUCCG: -0.0917
UCGCGUC: -0.354
CACGGGC: 0.178
CUCUUGG: -0.34
CACCGGG: 0.102
UCGCGAA: -0.146
CUCUCAU: -0.367
ACGUCCU: -0.237
CUGCAGU: -0.311
UUACUUC: -0.36
AGCUGCA: -0.0736
GCCUGGU: -0.293
AACAAAA: 6.46

Series 2 — method: aptamer microarray, sandwich; form: DNA with 2'F-ANA; sample: in vitro; concentration: 200 nM; added: Cy3 exosite-II aptamer, 400 nM; direction: higher = stronger binding; quantity: mean fluorescence intensity; strand: GGTTGGTGTGGTTGG
Target: Prothrombin, mature alpha-thrombin (F2, Homo sapiens, UniProt P00734)
Notes: whole 15-mer aptamer, many near background
2'F-ANA at 1 2 3 4 5 9 13 14 15: 59.5 a.u.
2'F-ANA at 1 2 3 6 7 8 9 12 13 14 15: 92.3 a.u.
2'F-ANA at 3 4 5 8 9 10 11 13 15: 51.3 a.u.
2'F-ANA at 1 5 7 8 10 12 13 14: 46.2 a.u.
2'F-ANA at 1 3 4 6 8 12 13 14 15: 80.1 a.u.
2'F-ANA at 1 2 11 13 14 15: 48.7 a.u.
2'F-ANA at 1 6 8: 238 a.u.
2'F-ANA at 1 3 4 6 8 9 11 12 14 15: 82.8 a.u.
2'F-ANA at 2 3 4 8 9 10 13 14 15: 154 a.u.
2'F-ANA at 1 2 4 6 7 8 9 10 11 13 14: 49.6 a.u.
2'F-ANA at 3 4 5 7 8 11 12 14 15: 58.2 a.u.
2'F-ANA at 1 2 3 4 7 10 11: 55.6 a.u.
2'F-ANA at 1 3 4 6 9 12 13 15: 214 a.u.
2'F-ANA at 3 4 5 8 9 11 12 14 15: 73 a.u.
2'F-ANA at 1 4 10 13 14: 44.9 a.u.
2'F-ANA at 1 3 5 6 7 10 15: 106 a.u.
2'F-ANA at 1 2 8 9 10 11 14 15: 52.9 a.u.
2'F-ANA at 2 6 7 8 9 11 13 15: 280 a.u.
2'F-ANA at 5 7 8 11 12 15: 135 a.u.
2'F-ANA at 3 6 7 10 12 13 15: 528 a.u.
2'F-ANA at 3 4 6 8 9 15: 565 a.u.

Series 3 — method: EMSA with sequencing; form: double-stranded DNA, one strand shown; sample: in vitro; concentration: 10 and 20 nM; relative to: negative control set to 0; direction: higher = stronger binding; quantity: normalised bound fraction
Target: Hepatocyte nuclear factor 3-alpha (Foxa1, Mus musculus, UniProt P35582, residues 1-468, full length assumed)
Notes: whole designed probe, mean of two concentrations, ends assumed
Constant ends, left off below: GTGAGCGGTGCCCATTGATGGGGAAC … TTTCACTGGGATCGTGGGGAC
Target sequence (chain): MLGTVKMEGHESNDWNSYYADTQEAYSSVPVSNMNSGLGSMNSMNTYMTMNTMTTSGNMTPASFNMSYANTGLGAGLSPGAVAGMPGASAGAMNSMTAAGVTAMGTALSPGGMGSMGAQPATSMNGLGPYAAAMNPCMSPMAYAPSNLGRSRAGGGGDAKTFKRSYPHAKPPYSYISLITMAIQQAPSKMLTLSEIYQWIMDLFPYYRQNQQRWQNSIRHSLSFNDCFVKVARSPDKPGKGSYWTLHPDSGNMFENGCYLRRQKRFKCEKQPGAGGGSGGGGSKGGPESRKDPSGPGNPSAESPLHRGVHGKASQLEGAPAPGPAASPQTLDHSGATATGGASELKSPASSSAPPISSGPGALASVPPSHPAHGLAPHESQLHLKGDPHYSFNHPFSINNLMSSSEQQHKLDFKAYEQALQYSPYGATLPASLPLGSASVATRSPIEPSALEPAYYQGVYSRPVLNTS
CTTACAGTACTGCAAGTTGCTCTAGGTGAGTCAGTGAGTGGTAAGTGAATGTGAAGGCCTAGGTTGTTACTGTGCTGTAGACTTTATAGACATAGAGTACTTAGACGACAATACATTTTTATTTTTATTATTATTTTTGAGACAGAATCTTGCTCTGTTGCCCAGACTAGAGTGCAGTGGTGCAATCTTGGCT: -0.00526 ratio
ATCTTCCCCCTCTTCCTTGCCCCACCAGCTCACCTTCCCGGGTATCTGCAAATAAGTATTTATTTTCAAGCCGGCATTCGTTAACCCTCTTCACGCGCATACTGCTGTTTACTTTGGATGAATCATGGTCCTTTGGCGACGCCAGGCTCCGGGAGAGCAAAGCACCGTGTCAGGGCCATGATCCGGGGTGGCC: 0.392 ratio
CACACACACTCACACACACAATCAAGAAACCATCAAACAAAGCTCAGAAACATTTCAAACATAAGATCATCTTTTACTTTACTTTTTTGTTGCATGTTTACTTTGCCTTCTGGAAATATTGCACAATCTATTAGCTTTTTCTCTTTAGATGTTTGAAGGATACAGAAGGTACTACTAACTTAAAAAAAAAAAC: 0.327 ratio
GGAAGTCTGCAATGCTTTGAACAGCAGGGTGTGGGAGGAAGTGTTGGCCCTACTCACCCTGCCTGACCTCCCTGGGCTGTGAGCTCAGAGCTCTGTTTACATAGCTGAGGGACTGGGAATGCTGGAGTGGAGGAAGGAGGTGATGAATGATTCAGGAGGACACACAACATCCCTGCTTTTCTTTCCTGCTGGC: 0.421 ratio
AAGAGGGAGTGAAGGTCTCTGAAAATGTAGGAGTCCCTTTAGTAGATGGGGAGAAATGGGTTAAAGATTTTTAAAAATTGCACAGACAGTAGTTGTTTGCTCTTTGGTTACAGGTGAATTATCTCTATCCTAGTTAGGAGTGGAGGACTGAAGTATGTCTCAATGCACAAACTAAGGCTGTGCAGGCTTGGAA: 0.11 ratio

Series 4 — method: RNA Bind-n-Seq; form: RNA; sample: in vitro; concentration: 365 nM; relative to: no-protein control; direction: higher = stronger binding; quantity: RBNS enrichment (R)
Target: RNA binding protein fox-1 homolog 2, RRM domain, GST-SBP tag (RBFOX2, Homo sapiens, UniProt O43251-10, residues 100-194)
Notes: natural RNA segment, single round, ends assumed
Constant ends, left off below: GGGAGUUCUACAGUCCGACGAUC … UGGAAUUCUCGGGUGCCAA
Target sequence (chain): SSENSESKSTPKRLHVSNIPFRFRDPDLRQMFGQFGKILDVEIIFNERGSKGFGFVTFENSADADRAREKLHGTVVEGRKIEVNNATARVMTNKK
AAGUAGAGUUUAGUAGGUUAUUACAAAAAGGGCAAGAGUUGUUUUGGUUUUGUUUCUUUCAAAAUAAUUUUUUUUCAAAAGAAUAACAAGGGUUAGGCAAAUGGGGGACC: 1.43
AGCCUGGCCAGGUGGCCCUCCACGUGAGGUCAUGGUCACAGCAUGGGGGCCUUGAGUGCCUGGCCAGGUGGCCCUCCACGUGAGGUCAUGGUCACAGCAUGGAGGCCUUG: 10.1
UCUGGAAAUCUAACCAAAGAGUCCCCAGACACCAACGGACCAAAGCUAACCGAGGAAGGAGAUGCCCUGAAAGAAGAAAUGAACAAGGCCCAGACAGAAGAGGACGACCU: 0.329
UGCUCCAACUGCCUGUCUCCAGGUCCCUGGGUGAAUGUGGCCAUCCAGCAGAGAUGCUAGUGGGGCUUCCGCUGUGUCAUCAGACCUCCAGAGCACCUGAUUGGCCCAAA: 0.195
GGAGAGCUGAGUCCUCUGUGGGUUCUGUAUUUAUCCAUUUGGCUUGAAGCUUUGUUUAUAUAUCGGCUGCUUUUUUUUUUUUAAAUGCUCAGACCAUUAUUUAUUUCUUG: 0.573
UGUUAAUUACAAAGAGAAAGAAUUGUCAUAGCAUCUUAUUUUGUUCCUAGUUUUAUAACAUUACCAUCCUUCGUUUUGAACUACAGAUGUUGUAGUGGGUUUUGGAGGAG: 0.948
UGCAUAUUUAAUCUGCAACAAAAAUGUUAAGCCAUAACAGCCUUUUUAUAUUUUAGUUUGUCACCUUUGCAUUGCAGAAUAAAUACUGAAUAACCAUUUUUAUAAGCAGU: 0.508
UGGUCAGCCCGCUCCCCAGGCCCGUCCCUGCCGCCGCCAGGUGUGGGCUCUAGGCAGGCCGACAAGGUUACACCUCCCAGAGCUUGUGAUCUUCAUUUUCUGACAGUCAA: 0.285

Excerpt of the above (series 2):
2'F-ANA at 3 4 5 8 9 11 12 14 15: 73 a.u.
2'F-ANA at 1 4 10 13 14: 44.9 a.u.
2'F-ANA at 1 3 5 6 7 10 15: 106 a.u.
2'F-ANA at 1 2 8 9 10 11 14 15: 52.9 a.u.
2'F-ANA at 2 6 7 8 9 11 13 15: 280 a.u.
2'F-ANA at 5 7 8 11 12 15: 135 a.u.
2'F-ANA at 3 6 7 10 12 13 15: 528 a.u.
